Measurements of several laboratories.
Each numbered part is a random draw from the data of one study; scales do not carry over between parts. Substitutions count along the parent as printed.

Study 1 — target: CCND1, cyclin fold, Cln2 fusion (human); technique: yeast growth competition, sequencing; medium: yeast; setting: strong parent motif; relative to: not given; direction: higher = stronger binding
Parent: INSM1 docking peptide (human); PKAIRKLHFEDEV
Change | normalised enrichment score
H8R | 3.69
D11T | 3.06
R5F | 0.571
R5T | 0.72
K6G | 0.485
K2G | 5.27
F9D | -0.291
H8A | 4.88

Study 2 — technique: RNAcompete; form: RNA; medium: in vitro; tested at: 20 nM; setting: 7-mer, probes averaged, single round; relative to: mean of 7-mers; direction: higher = stronger binding
Target: PABPC1L2, full length, GST fusion (mouse, UniProt A0ABA7IW68)
Residues (chain): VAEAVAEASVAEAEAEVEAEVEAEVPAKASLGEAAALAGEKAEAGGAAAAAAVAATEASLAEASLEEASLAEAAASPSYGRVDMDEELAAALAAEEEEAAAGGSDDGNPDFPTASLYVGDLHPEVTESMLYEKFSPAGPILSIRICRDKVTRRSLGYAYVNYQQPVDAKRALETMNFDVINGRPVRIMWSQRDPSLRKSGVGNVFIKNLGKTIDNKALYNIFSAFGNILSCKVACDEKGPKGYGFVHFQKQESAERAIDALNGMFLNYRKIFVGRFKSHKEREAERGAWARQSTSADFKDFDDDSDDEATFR
Sequence | 7-mer Z-score
CUCCCGA | -0.248
GUCAUAG | -0.193
UGCUUAA | -0.117
AUGUUGC | -0.199
UCAAGAG | -0.0264
CGAUAGA | 0.037
GACUGAG | -0.0319
CUCAGCU | -0.403
UUUGGCC | -0.358

Study 3 — technique: RNA Bind-n-Seq; form: RNA; medium: in vitro; tested at: 200 nM; setting: whole 134-nt RNA, ends assumed; with: 150 mM LiCl; relative to: input library; direction: higher = stronger binding; each molecule: 7-deaza-guanosine replaces G
Target: Ras GTPase-activating protein-binding protein 1, full length (G3BP1, Homo sapiens, UniProt Q13283)
Sequence of UniProt Q13283 (whole entry, looked up): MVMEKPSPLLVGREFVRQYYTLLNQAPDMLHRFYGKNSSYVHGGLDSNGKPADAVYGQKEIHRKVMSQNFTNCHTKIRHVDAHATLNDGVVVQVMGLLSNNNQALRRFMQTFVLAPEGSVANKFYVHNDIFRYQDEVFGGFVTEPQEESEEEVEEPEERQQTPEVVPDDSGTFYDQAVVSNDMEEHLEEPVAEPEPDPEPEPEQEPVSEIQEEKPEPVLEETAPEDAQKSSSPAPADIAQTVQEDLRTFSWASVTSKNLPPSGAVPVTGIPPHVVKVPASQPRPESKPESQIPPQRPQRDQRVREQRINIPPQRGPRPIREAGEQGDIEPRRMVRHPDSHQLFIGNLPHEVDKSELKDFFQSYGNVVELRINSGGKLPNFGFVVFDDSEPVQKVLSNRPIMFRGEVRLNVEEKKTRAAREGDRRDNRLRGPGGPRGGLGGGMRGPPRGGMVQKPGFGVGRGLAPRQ
All sequences stand within: GGGAGUUCUACAGUCCGACGAUC … UGGAAUUCUCGGGUGUCAAGG
Sequence | log2 enrichment
UAACUUUAGAGGAGGAUCUGAUGGAUAUGGCAGUGGACGUGGAUUUGGGGAUGGCUAUAAUGGGUAUGGAGGAGGACCUGGAUGUGGCAA | -0.268
CUCAAGUCCUGUGCUACACAUCGUAUGUACCGAAUCGGGGUUGGUUGGGGUUGGAAAGUAUUAUGUUACGCCGUUCGGAUCUGCACUUCC | 0.307
UGGGAGGUGGAUUUUGUUUAUUAUUUUAGCUCAUUUCCAGGGGUGGGAAUUUUUUUUUAAUAUGUGUCAUGAAUAAAGUUGUUUUUGAAA | -0.607
CCUGUGCUACACAUCGUAUGUACCGAAUCGGGAAAAAAAGGGAAAAAAAGGGUUUUUGGGAAAGUAUUAUGUUACGCCGUUCGGAUCUGC | -1.36
AAGUCCUGUGCUACACAUCGUAUGUACCGAAUCGGGGAAAGGGGAAAGGGGUGGGGAAAGUAUUAUGUUACGCCGUUCGGAUCUGCACUU | 0.187
UAAAUUUAGAGGAGGAUCUGAUGGAUAUGGCAGUGGACGUGGAUUUGGGGAUGGCUAUAAUGGGUAUGGAGGAGGACCUGGAGGUGGCAA | -0.224
UGGGAGGUGGAUUUUGUUUAUUUUUUUAGCUCAUUUCCAGGGGUGGCAAUUUUUUUUUAAUAUGUGUCAUGAAUAAAGUUGUUUUUGAAA | -0.809
CAAGUCCUGUGCUACACAUCGUAUGUACCGAAUCGGAAAGGAAAGGAAAAAAAGGAAAGUAUUAUGUUACGCCGUUCGGAUCUGCACUUC | -0.24
CUGUGCUACACAUCGUAUGUACCGAAUCGGGGUUUUUUUGGGUUUUUUUGGUUUUUUUGGGGAAAGUAUUAUGUUACGCCGUUCGGAUCU | 1.42
AGUCCUGUGCUACACAUCGUAUGUACCGAAUCGGGGUUUUUGGUUUUUGGGUUUUUGGAAAGUAUUAUGUUACGCCGUUCGGAUCUGCAC | -0.179

Further values, each from its own experiment
Substance | target | test | test system | conditions | how to read | endpoint | result
PhoQ, residues 284 288 289 292 302 303 TLSLKA | PhoP, residues 12 14 15 18 19 NQCAL (Escherichia coli, UniProt P23836) | Sort-seq, refers to: YFP reporter | E. coli | PhoQ-PhoP variant library, with: 10 µM Mg2+ | relative to: high Mg2+ state, higher = stronger signaling | fold induction | 0.831
